Published values of several laboratories.
Lines come from different studies, so protocols differ.
CDK16: Cyclin-dependent kinase 16 (CDK16, Homo sapiens, UniProt Q00536)
CDK16 with cyclin Y: Cyclin-dependent kinase 16, with cyclin Y (CDK16, Homo sapiens, UniProt Q00536)

| Compound | target | assay | conditions | scale | endpoint | result |
| --- | --- | --- | --- | --- | --- | --- |
| CC(C)=CC1OC(C)(C)C2C=C3C(=O)C(Cl)=CC(O)C3C3C(O)C4OC4C(=O)C132 (stereo not shown) | CDK16 | cell-free assay, competition with immobilised ligand | 10 µM |  | remaining binding | 70% |
| Nc1ncc(-c2cc(-c3cnn(CC(F)(F)F)c3)ncc2F)nc1C(=O)NC1CNCC(F)C1 (stereo not shown) | CDK16 with cyclin Y | enzyme activity | 1 µM | relative to: DMSO control | remaining activity | 80.5% |
| CN1C[C@@H](c2c[nH]c3cc(Br)ccc23)NC[C@@H]1c1c[nH]c2cc(Br)ccc12 | CDK16 with cyclin Y | enzyme activity, inhibitor | 10 µM |  | remaining activity | 96% |
| C=C1CCCCCCCCCC(CO)C1=O (stereo not shown) | CDK16 | cell-free assay, competition with immobilised ligand | 10 µM |  | remaining binding | 85% |
| CNC(=O)C1CCN(c2cc(C)c(F)cc2NC(=O)c2ccc(-c3cc(O)ccc3C)c(C)c2)CC1 | CDK16 | binding, competition with immobilised ligand | 1 µM |  | remaining binding | 75% |
| C=CC(=O)N1Cc2nc(-c3cc(-c4cc(Cl)cnc4Cl)c(F)cc3F)n(-c3ccncn3)c2C1 | CDK16 with cyclin Y | cell-free assay, inhibitor | 1 µM |  | inhibition | 0.2% |
| COc1c(Cl)cccc1Nc1c(-c2ccncc2C#C[C@@]2(C)CCCN2C(=O)/C=C/CN(C)C)[nH]c2c1C(=O)NCC2 | CDK16 | binding, competition with immobilised ligand | 3 µM |  | remaining binding | 85% |
| CCN1CCN(Cc2ccc(C(=O)Nc3ccc(C)c(NCc4cnc5[nH]ccc5c4OC)c3)cc2C(F)(F)F)CC1 | CDK16 | binding, competition with immobilised ligand | 1 µM |  | remaining binding | 100% |
| COc1cc(Nc2nc(C)cc(-c3cnn4nc(OC)ccc34)n2)cc(C(F)(F)F)c1 | CDK16 | inhibitor | 1 µM, PCTK1 | relative to: control | remaining activity | 74% |
| O=C(Cc1ccc(OCc2ccccc2)cc1)NC1(C(=O)O)CCN(C(=O)c2ccc(-c3cccc(Cl)c3)cc2)CC1 | CDK16 with cyclin Y | enzyme activity, inhibitor | 10 µM |  | activity vs control | 149% |
| C=CC(=O)N1CCc2ccc(-n3c(=O)ccc4cnc5ccc(-c6cnn(C)c6)cc5c43)cc21 | CDK16 | KINOMEscan | 1 µM | relative to: DMSO control | remaining binding | 92% |
| CC(=O)N1c2ccc(-c3ccc(CNC(=O)c4cn5cc(-c6cnc(N)nc6)nc(N6CCOCC6)c5n4)cc3)cc2CC[C@@H]1C | CDK16 | KINOMEscan | 10 µM |  | remaining binding | 79% |
| CN1CCN(Cc2ccc(NC(=O)c3cccc(C#Cc4cnc(N)c5ncccc45)c3)cc2C(F)(F)F)CC1 | CDK16 | cell-free assay, competition with immobilised ligand | 50 nM |  | remaining binding | 66% |

Some of these lines once more:
| Compound | target | assay | conditions | scale | endpoint | result |
| --- | --- | --- | --- | --- | --- | --- |
| O=C(Cc1ccc(OCc2ccccc2)cc1)NC1(C(=O)O)CCN(C(=O)c2ccc(-c3cccc(Cl)c3)cc2)CC1 | CDK16 with cyclin Y | enzyme activity, inhibitor | 10 µM |  | activity vs control | 149% |
| COc1c(Cl)cccc1Nc1c(-c2ccncc2C#C[C@@]2(C)CCCN2C(=O)/C=C/CN(C)C)[nH]c2c1C(=O)NCC2 | CDK16 | binding, competition with immobilised ligand | 3 µM |  | remaining binding | 85% |
